Measurements gathered from unrelated publications.
Parts stem from different laboratories: compare values within a part only. “And” joins repeats or separate records; there may be more than shown. pEC50: −log10 of the molar value.
UniProt P0C1S8, sequence (whole entry, looked up): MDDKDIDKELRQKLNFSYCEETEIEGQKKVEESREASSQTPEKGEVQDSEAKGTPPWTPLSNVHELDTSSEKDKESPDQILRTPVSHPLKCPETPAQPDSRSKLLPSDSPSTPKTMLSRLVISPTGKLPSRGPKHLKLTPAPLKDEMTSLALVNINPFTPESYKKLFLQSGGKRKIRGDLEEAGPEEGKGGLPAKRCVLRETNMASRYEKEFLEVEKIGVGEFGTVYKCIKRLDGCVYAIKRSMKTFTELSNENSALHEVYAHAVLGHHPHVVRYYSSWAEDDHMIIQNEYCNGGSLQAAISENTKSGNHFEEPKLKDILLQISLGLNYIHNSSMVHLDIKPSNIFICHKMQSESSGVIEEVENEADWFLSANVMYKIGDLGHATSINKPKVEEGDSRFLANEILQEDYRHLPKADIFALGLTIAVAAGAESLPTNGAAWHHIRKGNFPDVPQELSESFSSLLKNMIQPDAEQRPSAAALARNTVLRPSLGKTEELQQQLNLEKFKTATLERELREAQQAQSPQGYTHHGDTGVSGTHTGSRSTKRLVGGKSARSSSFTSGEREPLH
UniProt Q8N568, sequence (whole entry, looked up): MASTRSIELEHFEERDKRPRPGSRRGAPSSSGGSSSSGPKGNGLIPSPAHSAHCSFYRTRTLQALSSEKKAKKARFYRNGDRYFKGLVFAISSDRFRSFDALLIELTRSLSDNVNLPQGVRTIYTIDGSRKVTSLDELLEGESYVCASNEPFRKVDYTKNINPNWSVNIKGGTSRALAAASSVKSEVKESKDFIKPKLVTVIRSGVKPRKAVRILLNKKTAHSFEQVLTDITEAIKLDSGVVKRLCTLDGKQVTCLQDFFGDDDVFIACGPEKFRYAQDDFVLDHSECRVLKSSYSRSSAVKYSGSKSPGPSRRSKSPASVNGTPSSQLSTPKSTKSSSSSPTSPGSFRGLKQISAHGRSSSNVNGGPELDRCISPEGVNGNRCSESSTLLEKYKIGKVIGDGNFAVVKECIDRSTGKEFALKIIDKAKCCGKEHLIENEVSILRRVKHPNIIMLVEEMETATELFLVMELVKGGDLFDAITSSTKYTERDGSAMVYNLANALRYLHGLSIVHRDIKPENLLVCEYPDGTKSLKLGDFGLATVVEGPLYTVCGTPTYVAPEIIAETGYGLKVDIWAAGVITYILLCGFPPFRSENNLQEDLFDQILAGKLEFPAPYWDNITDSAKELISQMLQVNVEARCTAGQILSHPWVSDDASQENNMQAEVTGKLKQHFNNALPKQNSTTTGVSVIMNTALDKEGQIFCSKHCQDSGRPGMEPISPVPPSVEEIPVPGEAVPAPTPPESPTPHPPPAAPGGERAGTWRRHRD
UniProt Q15759, sequence (whole entry, looked up): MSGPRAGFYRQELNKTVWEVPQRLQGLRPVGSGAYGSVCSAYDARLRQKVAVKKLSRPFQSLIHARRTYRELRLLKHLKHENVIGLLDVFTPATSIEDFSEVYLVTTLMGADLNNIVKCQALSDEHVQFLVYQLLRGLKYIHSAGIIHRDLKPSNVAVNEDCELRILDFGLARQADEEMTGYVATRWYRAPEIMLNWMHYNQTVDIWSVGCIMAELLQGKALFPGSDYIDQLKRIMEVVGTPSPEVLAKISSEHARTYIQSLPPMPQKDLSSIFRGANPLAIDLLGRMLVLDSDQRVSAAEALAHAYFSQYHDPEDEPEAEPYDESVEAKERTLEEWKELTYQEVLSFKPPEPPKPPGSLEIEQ
UniProt Q15831, sequence (whole entry, looked up): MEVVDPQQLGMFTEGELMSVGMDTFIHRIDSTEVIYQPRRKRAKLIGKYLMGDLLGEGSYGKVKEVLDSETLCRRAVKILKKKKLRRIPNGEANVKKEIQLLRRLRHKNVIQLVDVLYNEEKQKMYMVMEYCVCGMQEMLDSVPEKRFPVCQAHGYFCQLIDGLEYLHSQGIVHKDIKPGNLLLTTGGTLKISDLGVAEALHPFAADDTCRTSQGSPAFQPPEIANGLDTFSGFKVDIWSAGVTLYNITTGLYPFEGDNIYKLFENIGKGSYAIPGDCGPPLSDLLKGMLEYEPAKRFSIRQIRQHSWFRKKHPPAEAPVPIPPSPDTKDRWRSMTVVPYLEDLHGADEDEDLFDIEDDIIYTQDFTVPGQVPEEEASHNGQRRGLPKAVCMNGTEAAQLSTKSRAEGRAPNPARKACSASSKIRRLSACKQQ
UniProt Q9H1R3, sequence (whole entry, looked up): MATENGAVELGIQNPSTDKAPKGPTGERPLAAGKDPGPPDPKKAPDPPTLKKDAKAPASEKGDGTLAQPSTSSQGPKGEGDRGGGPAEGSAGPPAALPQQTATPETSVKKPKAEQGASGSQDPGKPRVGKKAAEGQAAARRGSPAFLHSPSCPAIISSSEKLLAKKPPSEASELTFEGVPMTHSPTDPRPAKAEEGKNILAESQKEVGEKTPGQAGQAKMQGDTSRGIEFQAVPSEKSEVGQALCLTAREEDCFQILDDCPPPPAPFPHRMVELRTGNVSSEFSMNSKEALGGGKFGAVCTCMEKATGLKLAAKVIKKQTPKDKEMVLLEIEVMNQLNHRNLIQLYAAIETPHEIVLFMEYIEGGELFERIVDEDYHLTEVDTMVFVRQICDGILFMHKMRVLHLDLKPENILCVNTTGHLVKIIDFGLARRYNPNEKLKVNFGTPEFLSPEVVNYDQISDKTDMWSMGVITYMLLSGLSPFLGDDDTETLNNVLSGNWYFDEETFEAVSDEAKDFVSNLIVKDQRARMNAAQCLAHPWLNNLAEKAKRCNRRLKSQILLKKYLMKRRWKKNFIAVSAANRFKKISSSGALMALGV
UniProt Q9BXA7, sequence (whole entry, looked up): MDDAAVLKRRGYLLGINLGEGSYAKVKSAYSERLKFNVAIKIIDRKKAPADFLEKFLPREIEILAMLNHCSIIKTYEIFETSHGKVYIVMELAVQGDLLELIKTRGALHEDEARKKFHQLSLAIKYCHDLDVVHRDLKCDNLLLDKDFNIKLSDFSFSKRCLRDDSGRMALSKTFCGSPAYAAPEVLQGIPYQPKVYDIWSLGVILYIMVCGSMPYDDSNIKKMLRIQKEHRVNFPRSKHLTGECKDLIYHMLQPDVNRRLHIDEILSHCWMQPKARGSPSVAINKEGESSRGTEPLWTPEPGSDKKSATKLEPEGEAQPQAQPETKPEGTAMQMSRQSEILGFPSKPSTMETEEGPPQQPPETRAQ
UniProt O14965, sequence (whole entry, looked up): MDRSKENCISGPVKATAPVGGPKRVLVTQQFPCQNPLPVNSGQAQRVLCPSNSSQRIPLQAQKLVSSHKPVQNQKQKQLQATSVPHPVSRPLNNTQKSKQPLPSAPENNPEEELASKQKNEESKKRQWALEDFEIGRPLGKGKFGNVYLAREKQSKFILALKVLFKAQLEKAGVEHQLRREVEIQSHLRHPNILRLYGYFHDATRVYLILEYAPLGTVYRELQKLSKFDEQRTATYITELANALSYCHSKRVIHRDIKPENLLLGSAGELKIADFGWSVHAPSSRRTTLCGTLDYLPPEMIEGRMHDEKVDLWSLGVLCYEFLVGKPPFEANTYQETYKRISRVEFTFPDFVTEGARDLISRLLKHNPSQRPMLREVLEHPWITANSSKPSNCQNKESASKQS

Block 1
Structure (SMILES): Cn1cncc1[C@](O)(COc1ccc(C#N)cc1-c1ccc(OC(F)(F)F)cc1)c1ccc(C#N)cc1
Observed: cell-free assay
Method: competition with immobilised ligand
Tested at: 1 µM
target | remaining binding [%]
Wee1-like protein kinase 2 (WEE2, Homo sapiens, UniProt P0C1S8) | 84
Tyrosine-protein kinase ABL1, non-phosphorylated (ABL1, Homo sapiens, UniProt P00519, F317L) | 100
Myosin light chain kinase 2, skeletal/cardiac muscle (MYLK2, Homo sapiens, UniProt Q9H1R3) | 78
Serine/threonine-protein kinase STK11 (STK11, Homo sapiens, UniProt Q15831) | 71
Testis-specific serine/threonine-protein kinase 1 (TSSK1B, Homo sapiens, UniProt Q9BXA7) | 100
Mitogen-activated protein kinase 11 (MAPK11, Homo sapiens, UniProt Q15759) | 90
Serine/threonine-protein kinase DCLK2 (DCLK2, Homo sapiens, UniProt Q8N568) | 98
Tyrosine-protein kinase ABL1, phosphorylated (ABL1, Homo sapiens, UniProt P00519, Y253F) | 94
Aurora kinase A (AURKA, Homo sapiens, UniProt O14965) | 95
Ephrin type-A receptor 7 (EPHA7, Homo sapiens, UniProt Q15375) | 91
Dual specificity protein kinase TTK (TTK, Homo sapiens, UniProt P33981) | 100
Epidermal growth factor receptor (EGFR, Homo sapiens, UniProt P00533, del746-750) | 78

Block 2
Structure (SMILES): CC(C)S(=O)(=O)c1cc2c(Nc3ccc4sc(C5CCCC5)nc4c3)ccnc2cc1OCCO
cell line | observed | method | tested at | with | viability
L929 | necroptosis protection | CCK-8 | 0.078 µM | TNF-α plus zVAD | 48.6%
L929 | necroptosis protection | CCK-8 | 0.156 µM | TNF-α plus zVAD | 53.1%
L929 RIPK3 knockout |  |  | 6.25 µM |  | 95.6% and 97.5% and 95% and 89.4% and 92.5%
L929 | necroptosis protection | CCK-8 | 10 µM | TNF-α plus zVAD | 103%
L929 |  | CCK-8 | 3.125 µM | zVAD | 94.2% and 101% and 99.3% and 93% and 99.2%
L929 RIPK3 knockout |  |  | 0.781 µM |  | 94.8% and 96.9% and 95.5% and 95% and 93.5%
L929 RIPK3 knockout |  |  | 50 µM | zVAD | 52.5% and 52% and 50.5% and 56.6%
L929 RIPK3 knockout |  |  | 6.25 µM | zVAD | 87% and 93.2% and 92% and 96.7% and 88%
L929 |  | CCK-8 | 50 µM | zVAD | 39% and 56.8% and 38.4% and 37.8% and 57.3%
L929 |  | CCK-8 | 50 µM |  | 35.3% and 34.7% and 56% and 35.4% and 36.2%
L929 | necroptosis protection | CCK-8 | 0.313 µM | TNF-α plus zVAD | 65.7%
L929 |  | CCK-8 | 100 µM | zVAD | 8.19% and 13.3% and 8.14%
L929 | necroptosis protection | CCK-8 | 0.123 µM | TNF-α plus zVAD | 36.4%
L929 |  | CCK-8 | 1.563 µM | zVAD | 98.2% and 101% and 97.5% and 97.3% and 91%
L929 RIPK3 knockout |  |  | 0.781 µM | zVAD | 90.4% and 97.8% and 95.4% and 91.2%

Block 3
Target: Dual specificity tyrosine-phosphorylation-regulated kinase 1B (DYRK1B, Homo sapiens, UniProt Q9Y463)
Observed: enzyme activity
Mode: inhibitor
Method: radiometric
Tested at: 0.5 µM
Structure (SMILES) | remaining activity
CNC(=O)c1cc(Oc2ccc(NC(=O)Nc3ccc(Cl)c(C(F)(F)F)c3)cc2)ccn1 | 93.2%
CC(C)[C@H](CO)Nc1nc(Nc2cc(N)cc(Cl)c2)c2ncn(C(C)C)c2n1 | 38.3%
COc1cc2nccc(Oc3ccc(NC(=S)NC(=O)c4ccccc4C)cc3)c2cc1OC | 110%
Cc1ccc(Nc2nccc(N(C)c3ccc4c(C)n(C)nc4c3)n2)cc1S(N)(=O)=O | 93.3%
COC(=O)[C@]1(O)C[C@@H]2O[C@@]1(C)n1c3ccccc3c3c4c(c5c6ccccc6n2c5c31)C(=O)NC4 | 3.88%
Cn1c2ccccc2c2c3c(c4c5ccccc5n(CCC#N)c4c21)CNC3=O | 25.6%
Cc1nc(-c2ccccc2)c(-c2ccncc2)o1 | 98.9%
COc1ccc(C(=O)Nc2sc3c(c2C(N)=O)CCCC3)cc1OC | 104%

Block 4
Target: Beta-1 adrenergic receptor (ADRB1, Homo sapiens, UniProt P08588)
UniProt P08588, sequence (whole entry, looked up): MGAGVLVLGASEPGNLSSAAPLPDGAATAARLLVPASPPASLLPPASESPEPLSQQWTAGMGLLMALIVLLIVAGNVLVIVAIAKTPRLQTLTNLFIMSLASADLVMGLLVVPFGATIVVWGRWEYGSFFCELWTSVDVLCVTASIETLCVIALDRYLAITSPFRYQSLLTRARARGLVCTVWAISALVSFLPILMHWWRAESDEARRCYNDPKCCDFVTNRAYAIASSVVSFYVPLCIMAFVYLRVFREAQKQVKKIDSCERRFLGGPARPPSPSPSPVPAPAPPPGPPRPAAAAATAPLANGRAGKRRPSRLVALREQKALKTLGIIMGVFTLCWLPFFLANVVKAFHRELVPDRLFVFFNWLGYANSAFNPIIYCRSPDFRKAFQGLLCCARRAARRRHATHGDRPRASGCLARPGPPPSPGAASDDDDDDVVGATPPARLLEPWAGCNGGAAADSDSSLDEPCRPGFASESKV
Mode: agonist
SMILES | pEC50
Cc1ncc2c(c1CNCC1(O)CNCCOC1)CCNC2 (centres unmarked) | ≤ 4.00
Oc1cc2ccccc2c2ccccc12 | ≤ 4.00
CNc1ccc2c(CCN)cc(=O)oc2c1 | ≤ 4.00
